Assay results pooled from the literature.
Numbered parts are unrelated; each lists some results of a single study. Positions count from the first letter of the parent shown.

Sample 1
Target: Sal-like protein 4, full length isoform B (SALL4, Homo sapiens, UniProt Q9UJQ4-2, residues 1-616)
Technique: universal PBM
Form: double-stranded DNA, one strand shown
Medium: in vitro
Concentration: not given
Notes: 8-mer, flanks averaged, mean of replicates
Reading: higher = stronger binding
Sequence | E-score
AGACAGAT | 0.156
CAAGGCGG | -0.251
ACGAGAGT | 0.0472
ATGAAGCG | -0.0644
CTAGGCGC | -0.226
CTCTTAAC | -0.0901
CGTAACAG | -0.0309
ACGATCTA | 0.0945
CGTGATAA | 0.159
AGTAGCAG | 0.0526
GCTTCTTA | 0.0984
CAGTAGAA | 0.0454
GGTTACGA | 0.0165
AATGCACC | -0.0475
GATAGCGC | -0.104
CGATGTCC | -0.224
ATATGCGG | 0.263
ACAATCCT | 0.0938
CGACGGAG | -0.127

Sample 2
Target: CCNA1, cyclin fold, Cln2 fusion (human)
Technique: yeast growth competition, sequencing
Medium: yeast
Notes: weak parent motif
Baseline: not given
Reading: higher = stronger binding
Starting sequence: BORA docking peptide (human); SSLRRKLFLDGNG
Substitution | normalised enrichment score
SSLRRKAFLDGNG [L7A] | 0.27
ASLRRKLFLDGNG [S1A] | 0.223
SALRRKLFLDGNG [S2A] | 0.299
SSLRKKLFLDGNG [R5K] | 0.165
SSLRAKAFLDGNG [R5A L7A] | -0.00878
SSLRRALFLDGNG [K6A] | 0.387
SSLRRKLFADGNG [L9A] | -0.393
SSLRKKLLLDGNG [R5K F8L] | -0.00407
SSLARKLFLDGNG [R4A] | 0.301
SSLRRKLFLDGAG [N12A] | 0.671
SSLRRKLLLDGNG [F8L] | 0.318

Sample 3
Target: ABI1, truncated, D143A, DHFR fusion (Arabidopsis thaliana)
Technique: DHFR PCA, deep sequencing
Medium: yeast
Notes: methotrexate growth selection, single substitutions
Together with: (+)-ABA 710 µM
Baseline: wild-type fitted maximum
Reading: higher = stronger binding
Starting sequence: PYL1, truncated, DHFR fusion (Arabidopsis thaliana); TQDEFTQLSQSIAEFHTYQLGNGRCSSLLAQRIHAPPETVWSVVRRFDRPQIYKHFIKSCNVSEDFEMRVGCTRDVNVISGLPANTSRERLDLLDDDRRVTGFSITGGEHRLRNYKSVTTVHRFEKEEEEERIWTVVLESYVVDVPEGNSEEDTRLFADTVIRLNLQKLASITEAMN
Substitution | relative binding score [%]
K116M | 88.7
L8T | 92.2
R99G | 90.1
W134K | 101
L91S | 21
Q2G | 91.8
S150D | 101
N165R | 1.34
C60H | 25.9
F47I | 9.7
N177P | 92.7
I133D | 117
L8D | 70.7
H122K | 43.7
E130N | 106
C25Y | 51.5
H122F | 36.3
L91C | 96
L93K | 105
S11A | 90.9
E139R | 35.9
H122R | 46.4

Sample 4
Target: JUNB, bZIP domain (human)
Technique: DHFR protein complementation
Medium: yeast
Notes: single substitutions, most at no-binding floor
Baseline: wild-type JUN-FOS pair
Reading: higher = stronger binding
Starting sequence: JUN, bZIP domain (human); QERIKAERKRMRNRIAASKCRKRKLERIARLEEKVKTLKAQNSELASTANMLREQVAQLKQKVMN; partner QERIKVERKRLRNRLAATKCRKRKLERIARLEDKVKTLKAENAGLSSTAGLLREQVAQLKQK
Substitution | binding fitness
V56A | -1.39 natural log
S47T | -1 natural log
N42Q | -1.14 natural log
E33K | -1.17 natural log
A49T | -0.9 natural log
T37W | -1.07 natural log
A49D | -1.6 natural log
T37K | -0.967 natural log
A49K | -1.26 natural log
A40K | -1.04 natural log
L38E | -1.56 natural log
N42P | -1.58 natural log
K34T | -0.886 natural log
A40R | -1.06 natural log
A49F | -1.39 natural log
I28Q | -1.28 natural log
A29Q | -1.19 natural log
I28Y | -1.45 natural log
K36E | -1.23 natural log
Q41S | -1.49 natural log
I28E | -1.25 natural log
T48H | -1.31 natural log
V35Q | -1.51 natural log
E33N | -1.13 natural log
Q55S | -1.44 natural log

Sample 5
Target: Max-binding protein MNT, bHLH-zipper, MAX partner unstated (MNT, Homo sapiens, UniProt Q99583, residues 220-300)
Technique: protein-binding microarray
Form: double-stranded DNA, one strand shown
Medium: in vitro
Concentration: not given
Notes: k-mer, scored over probes, only values ≥0.25
Reading: higher = stronger binding
Target sequence (chain): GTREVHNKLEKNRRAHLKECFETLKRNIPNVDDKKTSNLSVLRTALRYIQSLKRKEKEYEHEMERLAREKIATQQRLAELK
Sequence | E-score
CGCCCCGC | 0.301
ACAGGGGC | 0.3
ACATGCAG | 0.32
GTAGGGGA | 0.255
CGTGTCTA | 0.358
ATGTGATC | 0.328
GTGTGGCA | 0.254
CGTGCACC | 0.378
ACCACGAT | 0.278
AGTCACGA | 0.334
GCGATCAC | 0.272
CATGGTCG | 0.347
CCCGCACG | 0.375
CCCACACC | 0.314
CAGCATGG | 0.431
ATGCGCCC | 0.282
TGAGCACA | 0.269
CACACGTG | 0.495
AACGTGCT | 0.448
AGTCATGC | 0.336
CACGCTCC | 0.364
CGCGCCCC | 0.292
ACCAGGCG | 0.279
CTGTACAC | 0.263
AACGTGCC | 0.397

Single results of other studies
Molecule | target | test | test system | conditions | scale | measurement | value
PhoQ, residues 284 288 289 292 302 303 SSCCRF | PhoP, residues 12 14 15 18 19 LYHSL (Escherichia coli, UniProt P23836) | Sort-seq, measured: YFP reporter | E. coli | PhoQ-PhoP variant library, together with: 10 µM Mg2+ | baseline: high Mg2+ state, higher = stronger signaling | fold induction | 1.7

A few entries again (sample 2):
Substitution | normalised enrichment score
SSLRKKLFLDGNG [R5K] | 0.165
SSLRRKAFLDGNG [L7A] | 0.27
SSLARKLFLDGNG [R4A] | 0.301
SALRRKLFLDGNG [S2A] | 0.299
SSLRAKAFLDGNG [R5A L7A] | -0.00878
SSLRRALFLDGNG [K6A] | 0.387
SSLRRKLFADGNG [L9A] | -0.393
SSLRRKLFLDGAG [N12A] | 0.671
SSLRRKLLLDGNG [F8L] | 0.318
SSLRKKLLLDGNG [R5K F8L] | -0.00407
ASLRRKLFLDGNG [S1A] | 0.223
